Measurements gathered from unrelated publications.
Numbers after ± are the reported error.

cisplatin  IC50 (compound-resistant NIH:OVCAR-3; cell viability, MTT; 72 h): 2.5 ± 1 µM
Cc1cc(N(CCCl)CCCl)ccc1C=O  IC50 (A498; cell growth, inhibitor, MTT): 0.0677 µg/mL
C(CCCCCN1COOC2(CCCCCC2)OOC2(CCCCCC2)OOC1)CCCCN1COOC2(CCCCCC2)OOC2(CCCCCC2)OOC1  IC50 (K562; cytotoxicity, 7-AAD flow cytometry): 1.74 ± 0.11 µM
COc1cc(S(=O)(=O)F)cc(OC)c1OC  IC50 (NCI-H460; cell viability, CellTiter-Glo; 72 h): > 1.5 µM
fluorouracil  IC50 (DLD-1; cell viability, MTS): > 50 µM
C1CCC2(C1)OOCOCOOC1(CCCC1)OO2  IC50 (K562; cytotoxicity, 7-AAD flow cytometry): 6.04 ± 0.18 µM
Cc1ccc(-c2csc(N(CC3OC(n4c[n+](Cc5ccccc5)c5c(=O)[nH]c(NC(=O)c6ccccc6)nc54)C4OC(C)(C)OC34)P(=O)([O-])O)n2)cc1 (stereo not drawn)  IC50 (HepG2; cell growth, SRB): > 100 µM
Cc1cc(N(CCCl)CCCl)ccc1C(=O)O  IC50 (CAKI-1; cell growth, inhibitor, MTT): 6.6 µg/mL
CC1CCC2(CC1)OOCOCOOC1(CCC(C)CC1)OO2 (stereo not drawn)  IC50 (HEK293; cytotoxicity, 7-AAD flow cytometry): 14.3 ± 0.54 µM

A few entries again:
COc1cc(S(=O)(=O)F)cc(OC)c1OC  IC50 (NCI-H460; cell viability, CellTiter-Glo; 72 h): > 1.5 µM
